Assay results pooled from the literature.
A part holds a random share of what one study measured. Values joined by “and” are separate records of one study, mostly repeats; a detail may differ.
Sequence of UniProt Q16816 (whole entry, looked up): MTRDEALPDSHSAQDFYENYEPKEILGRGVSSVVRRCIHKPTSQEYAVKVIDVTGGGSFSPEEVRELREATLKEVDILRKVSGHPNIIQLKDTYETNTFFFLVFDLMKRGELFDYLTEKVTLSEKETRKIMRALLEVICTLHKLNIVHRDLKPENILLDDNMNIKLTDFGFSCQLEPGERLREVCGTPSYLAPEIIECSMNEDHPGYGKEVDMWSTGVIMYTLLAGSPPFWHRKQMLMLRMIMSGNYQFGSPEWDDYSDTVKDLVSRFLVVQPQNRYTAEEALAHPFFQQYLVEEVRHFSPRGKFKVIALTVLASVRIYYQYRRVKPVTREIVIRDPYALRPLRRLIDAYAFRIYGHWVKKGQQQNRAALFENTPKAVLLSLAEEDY
Sequence of UniProt P11802 (whole entry, looked up): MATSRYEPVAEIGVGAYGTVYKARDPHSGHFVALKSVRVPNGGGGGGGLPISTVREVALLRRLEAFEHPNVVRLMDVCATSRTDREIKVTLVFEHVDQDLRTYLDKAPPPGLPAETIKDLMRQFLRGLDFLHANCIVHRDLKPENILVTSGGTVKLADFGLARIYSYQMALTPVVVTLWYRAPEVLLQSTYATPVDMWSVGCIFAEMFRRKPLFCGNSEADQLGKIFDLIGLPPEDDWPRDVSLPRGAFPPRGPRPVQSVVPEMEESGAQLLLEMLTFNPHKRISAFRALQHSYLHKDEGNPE
Sequence of UniProt O43781 (whole entry, looked up): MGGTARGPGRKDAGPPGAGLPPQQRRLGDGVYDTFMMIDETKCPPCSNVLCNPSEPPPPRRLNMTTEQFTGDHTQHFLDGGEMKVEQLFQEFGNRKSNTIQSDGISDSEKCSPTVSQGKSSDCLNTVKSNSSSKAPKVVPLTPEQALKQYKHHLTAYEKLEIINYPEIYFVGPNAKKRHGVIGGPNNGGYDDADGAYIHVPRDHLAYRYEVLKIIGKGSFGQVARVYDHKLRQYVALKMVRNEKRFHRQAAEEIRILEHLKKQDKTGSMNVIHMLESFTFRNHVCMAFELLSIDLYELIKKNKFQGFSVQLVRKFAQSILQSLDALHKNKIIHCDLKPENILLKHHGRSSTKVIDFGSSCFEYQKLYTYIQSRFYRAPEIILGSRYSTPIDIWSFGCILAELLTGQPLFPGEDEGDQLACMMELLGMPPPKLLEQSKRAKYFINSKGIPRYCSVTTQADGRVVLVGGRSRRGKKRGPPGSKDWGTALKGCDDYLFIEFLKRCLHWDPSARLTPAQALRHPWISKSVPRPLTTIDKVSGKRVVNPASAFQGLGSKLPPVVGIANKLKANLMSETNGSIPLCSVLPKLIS
Sequence of UniProt Q9BYP7 (whole entry, looked up): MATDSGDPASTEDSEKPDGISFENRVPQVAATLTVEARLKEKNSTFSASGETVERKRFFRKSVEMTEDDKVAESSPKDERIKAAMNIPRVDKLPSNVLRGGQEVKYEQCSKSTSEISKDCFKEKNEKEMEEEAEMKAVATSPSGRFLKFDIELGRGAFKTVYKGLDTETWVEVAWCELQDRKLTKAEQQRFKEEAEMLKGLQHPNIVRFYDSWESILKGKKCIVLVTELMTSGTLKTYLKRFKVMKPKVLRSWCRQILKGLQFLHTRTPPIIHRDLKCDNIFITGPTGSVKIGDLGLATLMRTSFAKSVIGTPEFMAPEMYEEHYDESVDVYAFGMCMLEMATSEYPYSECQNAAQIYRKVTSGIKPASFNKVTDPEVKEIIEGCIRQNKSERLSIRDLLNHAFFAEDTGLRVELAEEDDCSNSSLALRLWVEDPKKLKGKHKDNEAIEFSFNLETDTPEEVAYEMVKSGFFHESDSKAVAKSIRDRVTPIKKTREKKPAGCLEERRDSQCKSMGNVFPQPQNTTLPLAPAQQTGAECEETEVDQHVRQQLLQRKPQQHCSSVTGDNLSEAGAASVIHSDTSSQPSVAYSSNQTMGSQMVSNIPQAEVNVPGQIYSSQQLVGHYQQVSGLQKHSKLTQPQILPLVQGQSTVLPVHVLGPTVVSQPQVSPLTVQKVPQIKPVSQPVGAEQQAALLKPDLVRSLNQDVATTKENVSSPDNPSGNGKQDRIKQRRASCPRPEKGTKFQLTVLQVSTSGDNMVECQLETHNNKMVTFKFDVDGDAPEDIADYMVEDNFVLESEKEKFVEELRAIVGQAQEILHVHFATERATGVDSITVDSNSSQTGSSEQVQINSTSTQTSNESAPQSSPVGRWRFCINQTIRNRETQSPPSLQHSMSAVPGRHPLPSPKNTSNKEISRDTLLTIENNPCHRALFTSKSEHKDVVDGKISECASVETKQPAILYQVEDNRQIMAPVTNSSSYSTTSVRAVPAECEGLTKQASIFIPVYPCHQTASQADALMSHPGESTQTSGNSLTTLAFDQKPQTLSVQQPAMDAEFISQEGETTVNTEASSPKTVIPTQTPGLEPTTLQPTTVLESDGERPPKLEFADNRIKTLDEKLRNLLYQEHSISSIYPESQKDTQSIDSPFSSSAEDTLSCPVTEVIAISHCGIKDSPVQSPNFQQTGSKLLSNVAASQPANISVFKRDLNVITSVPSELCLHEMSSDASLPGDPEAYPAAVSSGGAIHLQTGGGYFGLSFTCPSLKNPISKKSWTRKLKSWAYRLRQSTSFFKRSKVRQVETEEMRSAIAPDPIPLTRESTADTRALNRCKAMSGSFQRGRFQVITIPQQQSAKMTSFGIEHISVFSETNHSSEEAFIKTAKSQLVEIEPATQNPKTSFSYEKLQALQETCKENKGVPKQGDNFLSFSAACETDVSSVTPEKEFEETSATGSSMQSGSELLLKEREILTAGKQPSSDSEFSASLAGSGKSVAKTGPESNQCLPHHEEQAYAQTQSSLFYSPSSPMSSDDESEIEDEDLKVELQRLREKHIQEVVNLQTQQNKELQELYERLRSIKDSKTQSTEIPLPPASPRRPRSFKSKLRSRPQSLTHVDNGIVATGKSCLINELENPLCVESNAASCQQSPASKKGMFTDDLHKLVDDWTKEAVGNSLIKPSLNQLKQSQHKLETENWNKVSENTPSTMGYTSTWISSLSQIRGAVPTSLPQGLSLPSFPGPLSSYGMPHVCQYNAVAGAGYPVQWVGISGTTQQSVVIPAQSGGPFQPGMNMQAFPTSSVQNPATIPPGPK
Sequence of UniProt Q9H093 (whole entry, looked up): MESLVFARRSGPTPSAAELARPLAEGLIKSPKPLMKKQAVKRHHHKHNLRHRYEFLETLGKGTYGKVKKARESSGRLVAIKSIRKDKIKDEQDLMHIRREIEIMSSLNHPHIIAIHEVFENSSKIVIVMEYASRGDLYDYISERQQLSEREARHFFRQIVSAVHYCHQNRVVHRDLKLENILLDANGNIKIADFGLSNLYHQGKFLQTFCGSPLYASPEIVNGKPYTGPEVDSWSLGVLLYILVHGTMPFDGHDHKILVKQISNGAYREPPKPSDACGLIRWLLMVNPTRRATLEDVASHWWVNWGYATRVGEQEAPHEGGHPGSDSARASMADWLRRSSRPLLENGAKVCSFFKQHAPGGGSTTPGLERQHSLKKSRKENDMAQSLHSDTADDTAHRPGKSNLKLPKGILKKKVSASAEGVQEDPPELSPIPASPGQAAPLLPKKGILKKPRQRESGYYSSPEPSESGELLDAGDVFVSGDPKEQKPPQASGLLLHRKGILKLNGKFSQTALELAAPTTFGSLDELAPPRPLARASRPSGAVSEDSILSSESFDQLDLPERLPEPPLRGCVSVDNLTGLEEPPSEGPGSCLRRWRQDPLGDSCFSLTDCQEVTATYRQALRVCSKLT

Block 1
Structure (SMILES): Cc1noc([C@H]2C[C@@H](c3ccc(C(F)(F)F)cc3)CN(C(=O)N3CCS(=O)(=O)C3)C2)n1
Read-out: cell-free assay
Method: competition with immobilised ligand
Concentration: 1 µM
Quantity: remaining binding
NIM1K (Homo sapiens, UniProt Q8IY84): 100%
Ribosomal protein S6 kinase alpha-1, C-terminal kinase domain (RPS6KA1, Homo sapiens, UniProt Q15418): 100%
EGFR (Homo sapiens, UniProt P00533): 100%
FGFR3 (Homo sapiens, UniProt P22607, G697C): 84%
OXSR1 (Homo sapiens, UniProt O95747): 89%
PIK3CA (Homo sapiens, UniProt P42336): 99%
MAP3K9 (Homo sapiens, UniProt P80192): 100%
SIK3 (Homo sapiens, UniProt Q9Y2K2): 78%
AXL (Homo sapiens, UniProt P30530): 100%
COQ8B (Homo sapiens, UniProt Q96D53): 100%
PHKG1 (Homo sapiens, UniProt Q16816): 100%
Tyrosine-protein kinase ABL1, phosphorylated (ABL1, Homo sapiens, UniProt P00519, F317L): 85%
TGFBR2 (Homo sapiens, UniProt P37173): 100%
Cyclin-dependent kinase 4, with cyclin D1 (CDK4, Homo sapiens, UniProt P11802): 100%
Ribosomal protein S6 kinase alpha-5, N-terminal kinase domain (RPS6KA5, Homo sapiens, UniProt O75582): 85%
EPHA6 (Homo sapiens, UniProt Q9UF33): 100%
NUAK2 (Homo sapiens, UniProt Q9H093): 100%

Block 2
Organism: Sarcocystis neurona
Read-out: parasite growth
Concentration: 10 µM
Time: 96 h
Baseline: untreated
Quantity: log2 fold change
Cc1[nH]cnc1CN1CCc2c(c3ccccc3n2C)C1=O: 0.38
CC[C@H]1OC(=O)[C@H](C)[C@@H](O[C@H]2C[C@@](C)(OC)[C@@H](O)[C@H](C)O2)[C@H](C)[C@@H](O[C@@H]2O[C@H](C)C[C@H](N(C)C)[C@H]2O)[C@](C)(O)C[C@@H](C)CN(C)[C@H](C)[C@@H](O)[C@]1(C)O: -0.0368
Cc1c2oc3c(C)ccc(C(=O)N[C@@H]4C(=O)N[C@H](C(C)C)C(=O)N5CCC[C@H]5C(=O)N(C)CC(=O)N(C)[C@@H](C(C)C)C(=O)O[C@@H]4C)c3nc-2c(C(=O)N[C@@H]2C(=O)N[C@H](C(C)C)C(=O)N3CCC[C@H]3C(=O)N(C)CC(=O)N(C)[C@@H](C(C)C)C(=O)O[C@@H]2C)c(N)c1=O: -0.18
CC(C)OC(=O)CCC/C=C\C[C@@H]1[C@@H](CC[C@@H](O)CCc2ccccc2)[C@H](O)C[C@@H]1O: 0.26
COc1cc2c(cc1OC)C(=O)C(CC1CCN(Cc3ccccc3)CC1)C2 (stereo not drawn): 0.37
O=C(CCCN1CC=C(n2c(=O)[nH]c3ccccc32)CC1)c1ccc(F)cc1: -0.67
CCCN(CCC)S(=O)(=O)c1ccc(C(=O)O)cc1: 0.34
CCCc1nc(C(C)(C)O)c(C(=O)OCc2oc(=O)oc2C)n1Cc1ccc(-c2ccccc2-c2nnn[nH]2)cc1: -0.0548
COc1cc([C@@H]2c3cc4c(cc3[C@@H](O[C@@H]3O[C@@H]5CO[C@@H](C)O[C@H]5[C@H](O)[C@H]3O)[C@H]3COC(=O)[C@H]23)OCO4)cc(OC)c1O: 0.26

Block 3
SMILES: Cc1ccc(NC2=CC(=O)c3sc(C)nc3C2=O)cc1
Read-out: enzyme activity
Mode: inhibitor
Concentration: 0.5 µM
Baseline: control
Quantity: remaining activity
TSSK2 (Homo sapiens, UniProt Q96PF2): 98.3%
PDPK1 (Homo sapiens, UniProt O15530): 88.7%
MAP4K4 (Homo sapiens, UniProt O95819): 84.5%
BLK (Homo sapiens, UniProt P51451): 95.4%
Cyclin-dependent kinase 1, with cyclin B (CDK1, Homo sapiens, UniProt P06493): 69.7%
WNK3 (Homo sapiens, UniProt Q9BYP7): 102%
EPHB4 (Homo sapiens, UniProt P54760): 89.7%
HIPK4 (Homo sapiens, UniProt Q8NE63): 93.7%
DYRK3 (Homo sapiens, UniProt O43781): 96.2%
Cyclin-dependent kinase 4, with cyclin D3 (CDK4, Homo sapiens, UniProt P11802): 93.7%
PHKG1 (Homo sapiens, UniProt Q16816): 88.7%

Block 4
SMILES: CC(C)(C(=O)O)[C@H](NC(=O)Cc1cccc(I)c1)c1ccc2oc(=O)[nH]c2c1
Method: Incucyte 3D growth
Concentration: 30 µM
Reading: higher = more growth
Quantity: spheroid area
NCI-H1437; 180 h: 3.96e+07 a.u. and 6.08e+07 a.u. and 4.2e+07 a.u. and 4.27e+07 a.u. and 4.39e+07 a.u. and 6.5e+07 a.u.
A375; 138 h: 7.76e+07 a.u. and 8.46e+07 a.u. and 8.22e+07 a.u. and 8.84e+07 a.u. and 1e+08 a.u. and 7.38e+07 a.u.
NCI-H358; 234 h: 9.04e+06 a.u. and 9.4e+06 a.u. and 1.01e+07 a.u. and 8.77e+06 a.u. and 8.93e+06 a.u. and 8.1e+06 a.u.
KP-4; 114 h: 2.03e+07 a.u. and 1.7e+07 a.u. and 1.91e+07 a.u. and 1.61e+07 a.u. and 1.94e+07 a.u. and 1.79e+07 a.u.
A375; 66.52 h: 2.42e+07 a.u. and 3.44e+07 a.u. and 3.38e+07 a.u. and 3.86e+07 a.u. and 4.68e+07 a.u. and 3.96e+07 a.u.

Excerpt of the above (block 1):
EGFR (Homo sapiens, UniProt P00533): 100%
FGFR3 (Homo sapiens, UniProt P22607, G697C): 84%
OXSR1 (Homo sapiens, UniProt O95747): 89%
PIK3CA (Homo sapiens, UniProt P42336): 99%
MAP3K9 (Homo sapiens, UniProt P80192): 100%
SIK3 (Homo sapiens, UniProt Q9Y2K2): 78%
AXL (Homo sapiens, UniProt P30530): 100%
